Assay results pooled from the literature.
Each line is one published result; not all experiments were run side by side. ± gives the spread as reported.
EPHA4: Ephrin type-A receptor 4 (EPHA4, Homo sapiens, UniProt P54764)
cathepsin H: cathepsin H (Capra hircus, UniProt A0A452G5L2)

| Compound | target | assay | test system | conditions | Ki [nM] |
| --- | --- | --- | --- | --- | --- |
| CCCCCCCCCC[C@@H]1O[C@@H]1CCCCC(C)C | pheromone-binding protein 1 (Lymantria dispar, UniProt O16105) | binding, competitive fluorescence binding | – | pH 7.3, pheromone-binding protein 1, added: 1-NPN probe | 2120 ± 10 |
| CC(=O)NCC1OC(OP(=O)(O)OP(=O)(O)OCC2OC(n3cnc4c(=O)[nH]c(N)nc43)C(O)C2O)C(F)C(O)C1O (stereo not drawn) | FUT3 (Homo sapiens, UniProt P21217) | enzyme activity, inhibitor | – | – | 9900 |
| CCOC(=O)C(CS)N1C(=O)c2ccc(N(C)C)cc2C1=O (stereo not drawn) | Metallo-beta-lactamase type 2 (Serratia marcescens, UniProt P52699) | enzyme activity, inhibitor | – | Km 4.8 µM, added: chromacef 25 µM | 4.2 ± 0.5 |
| CNC(=O)C1CCN(c2ccccc2NC(=O)c2ccc(-c3ccncc3)c(C)c2)CC1 | EPHA4 | – | – | – | > 250 |
| COC(=O)c1cccc(CS(=O)(=O)NCc2cn(CB(O)O)nn2)c1 | Beta-lactamase ADC-7 (Acinetobacter baumannii, UniProt Q6DRA1) | enzyme activity, inhibitor | – | added: nitrocefin | 700 ± 80 |
| O=C(/C=C/c1ccccc1)c1ccccc1 | cathepsin H | competitive inhibitor, Lineweaver-Burk plot | goat liver enzyme | pH 7.0, added: Leu-βNA substrate | 263000 ± 2000 |
| CC(=O)N[C@@H](Cc1ccccc1)C(=O)N[C@@H](CC(=O)O)C(=O)N[C@H](C(=O)N1CCC[C@H]1C(=O)N[C@H](C=O)CC(=O)O)C(C)C | Caspase-6 (CASP6, Homo sapiens, UniProt P55212) | enzyme activity, inhibitor, fluorescence | – | pH 7 | 14100 |
| O=C(Cc1ccccc1)Nc1ccccc1NC(=O)Cc1ccccc1 | PPOX (Homo sapiens, UniProt P50336) | enzyme activity, inhibitor, fluorescence | – | – | > 250000 |
| NC(=O)N/N=C(\C=C\c1cccc(Cl)c1)c1ccccc1 | cathepsin H | competitive inhibitor, Lineweaver-Burk plot | goat liver enzyme | pH 7.0, added: Leu-βNA substrate | 60000 ± 100 |
| CCCCCCSC[C@H]1CN(Cc2c[nH]c3c(N)ncnc23)C[C@@H]1O | Aminodeoxyfutalosine nucleosidase (Helicobacter pylori, UniProt Q9ZMY2) | enzyme activity, inhibitor | – | initial | 0.21 ± 0.03 |
| Cc1ccc(C2=NN(C(=O)CCC(=O)O)C(c3cc4cc5c(cc4nc3Cl)OCCO5)C2)cc1 (stereo not drawn) | PTH1R (Homo sapiens, UniProt Q03431) | ligand displacement, radioligand | – | – | 5600 |
| COc1cc(Cc2cnc(N)nc2N)cc(/C=C/C(=O)N2N=Cc3ccccc3C2c2ccccc2)c1OC (stereo not drawn) | Dihydrofolate reductase (Enterococcus faecalis, UniProt Q834R2) | enzyme activity, inhibitor | – | added: dihydrofolate (Km 10.9 µM) | 2.6 |
| CNC(=O)C1CCN(c2ccccc2NC(=O)c2ccc(-c3cc(O)ccc3C)c(OC)c2)CC1 | EPHA4 | enzyme activity, inhibitor | – | – | 1.7 |
| C#CCOC(=O)[C@@]1(C)C=C(C(=O)OC(C)(C)C)C(=O)CC1 | MAPK14 (Homo sapiens, UniProt Q16539) | ligand displacement, FP | – | – | 3500 |
| Cc1cc(N)nc(C[C@@H]2CNC[C@@H]2OCCCCCc2cccc(F)c2)c1 | Nos1 (Rattus norvegicus, UniProt P29476) | enzyme activity, inhibitor | – | pH 7.4 | 922 |

Excerpt of the above:
| Compound | target | assay | test system | conditions | Ki [nM] |
| --- | --- | --- | --- | --- | --- |
| CNC(=O)C1CCN(c2ccccc2NC(=O)c2ccc(-c3cc(O)ccc3C)c(OC)c2)CC1 | EPHA4 | enzyme activity, inhibitor | – | – | 1.7 |
